Assay results pooled from the literature.
Each line is one published result; not all experiments were run side by side. Numbers after ± are the reported error.

CC[C@H](C)[C@H](NC(=O)[C@H](C)NC(=O)CNC(=O)[C@@H](N)CCSC)C(=O)N[C@@H](C)C(=O)N[C@@H](CCCCN)C(=O)N[C@@H](CC(C)C)C(=O)N[C@H](C(=O)N[C@@H](C)C(=O)N[C@@H](CCCCN)C(=O)N[C@@H](Cc1ccccc1)C(=O)NCC(=O)N[C@@H](Cc1c[nH]c2ccccc12)C(=O)N1CCC[C@H]1C(=O)N[C@@H](Cc1ccccc1)C(=O)N[C@H](C(=O)N[C@@H](CCCCN)C(=O)N[C@@H](CCCCN)C(=O)N[C@@H](Cc1ccccc1)C(=O)N[C@@H](Cc1ccc(O)cc1)C(=O)N[C@@H](CCCCN)C(=O)N[C@@H](CCC(N)=O)C(=O)N[C@@H](CCCNC(=N)N)C(=O)N[C@@H](CCSC)C(=O)N[C@@H](CCC(N)=O)C(=O)N[C@@H](Cc1ccccc1)C(=O)N[C@H](C(=O)NCC(=O)N[C@@H](CCC(N)=O)C(=O)NCC(=O)N[C@@H](Cc1c[nH]c2ccccc12)C(=O)N[C@H](C(=O)N[C@H](C(=O)N[C@@H](CC(=O)O)C(=O)N[C@@H](CCC(N)=O)C(=O)N[C@H](C(=O)N[C@@H](CCC(=O)O)C(=O)N[C@@H](CCCCN)C(=O)N[C@@H](Cc1c[nH]c2ccccc12)C(=O)N[C@@H](CC(C)C)C(=O)N[C@@H](CCCCN)C(=O)N[C@@H](CCCNC(=N)N)C(=O)N[C@@H](Cc1c[nH]cn1)C(=O)O)[C@@H](C)CC)[C@@H](C)CC)[C@@H](C)O)[C@@H](C)CC)[C@@H](C)CC)C(C)C  MIC (Bacillus subtilis subsp. subtilis; ATCC 23857; 10 h): 3.1 ± 0.1 µM
CC(C)C[C@H](NC(=O)[C@H](CCCCN)NC(=O)[C@H](C)NC(=O)[C@H](CC(C)C)NC(=O)[C@H](CCCCN)NC(=O)[C@H](CCCCN)NC(=O)[C@H](C)NC(=O)[C@H](CC(C)C)NC(=O)[C@H](CCCCN)NC(=O)[C@H](C)NC(=O)[C@H](CC(C)C)NC(=O)[C@H](CCCCN)NC(=O)[C@H](Cc1c[nH]cn1)NC(=O)[C@H](C)NC(=O)[C@@H](N)CC(=O)O)C(=O)N[C@@H](C)C(=O)N[C@@H](CCCCN)C(N)=O  MIC (Enterobacter aerogenes; ATCC 13048; 18 to 20 h): > 32 µM
O=[N+]([O-])c1ccc(C2=[N+]([O-])c3ccccc3N3CCCN=C23)cc1  MIC (Clostridium sporogenes; microbial growth; ATCC3584): ≤ 0.06 µg/mL
O=C(/C=C/CBr)O[C@@H]1COC(=O)C1  MIC (Vibrio harveyi; BB120): 125 µM
Cc1ccccc1C(=O)NN=Cc1ccc(O)c(Br)c1  MIC (Cryptococcus neoformans; microbial growth): 1 µg/mL
C=C(NC(=O)C(=C)NC(=O)c1csc(C2=NC3c4csc(n4)C4NC(=O)c5csc(n5)C(C(C)(O)C(C)O)NC(=O)C5CSC(=N5)C(=CC)NC(=O)C(C(C)O)NC(=O)c5csc(n5)C3(CC2)NC(=O)C(C)NC(=O)C(=C)NC(=O)C(C(C)C)NC2C=Cc3c(C(C)O)cc(nc3C2O)C(=O)OC4C)n1)C(N)=O (stereo not drawn)  MIC (Bacillus sp.; broth microdilution; ATCC 27859; 18 h, 37 °C): > 5 µg/mL
CC(C)C[C@@H]1NC(=O)[C@H](C)NC(=O)[C@H](NC(=O)[C@@H](N)COC(=O)[C@@H](C)NC(=O)[C@@H](CC(C)C)NC(=O)[C@@H](N)Cc2ccccc2)[C@H](C(N)=O)OC(=O)[C@H](CC(C)C)NC1=O  MIC (Bacillus subtilis Staphylococcus epidermidis; ATCC 14990; tested as TFA salt): > 32 µg/mL
CCCCCCCCCCCCCCC(=O)O.O=C1CCCC2C3CCCN4CCCC(CN12)C34 (stereo not drawn)  MIC (Cutibacterium acnes; bacterial growth, broth dilution; ATCC 6919): inactive
CC(C)[C@H](NC(=O)[C@H]1NC(=O)[C@H](CO)NC(=O)[C@H](CC(N)=O)NC(=O)[C@@H](N)Cc2c[nH]c3cc(ccc23)C1C(N)=O)C(=O)N[C@H]1Cc2cn(cn2)C(c2ccc(O)cc2)[C@@H](C(=O)N[C@@H](CCCNC(=N)N)C(=O)N[C@@H](Cc2ccccc2)C(=O)O)NC(=O)[C@H](CO)NC1=O (stereo partly drawn)  MIC (Photorhabdus australis; DSM 17609): > 128 µg/mL
CCCCCCCc1ccc(NC(=O)CCCN(C)[C@H](C(N)=O)[C@H](O[C@@H]2O[C@H](CN)[C@@H](O)[C@H]2O)[C@H]2O[C@@H](n3ccc(=O)[nH]c3=O)[C@H](O)[C@@H]2O)cc1  MIC (Clostridioides difficile; microbial growth; ATCC43596): 25 µg/mL
C[C@@H](c1ccn(Cc2ccc(Cl)cc2Cl)n1)[C@](O)(Cn1cnnn1)c1ccc(F)cc1F  MIC (Candidozyma auris; microbial growth; D12; 24 h, drug-resistant strain, clinical isolate): 16 µg/mL
CC[C@H](C)[C@H](NC(=O)[C@H](CO)NC(=O)[C@H](CO)NC(=O)[C@H](Cc1ccccc1)NC(=O)CN)C(=O)N[C@@H](Cc1ccccc1)C(=O)N[C@@H](CCCNC(=N)N)C(N)=O  MIC (Escherichia coli; ATCC 8739; 10% FBS): > 128 µM
C[C@@H](c1ccn(Cc2ccc(OC(F)(F)F)cc2)n1)[C@](O)(Cn1cnnn1)c1ccc(F)cc1F  MIC (Candidozyma auris; growth; 789 drug-resistant isolate; 24 h, 30 °C, ≥50% inhibition): 0.25 µg/mL
CC[C@H](C)[C@H](NC(=O)[C@H](CCCCNC(=N)N)NC(=O)[C@H](CC(N)=O)NC(=O)[C@H](CC(C)C)NC(=O)[C@H](Cc1ccccc1)NC(=O)[C@H](CCCCNC(=N)N)NC(=O)[C@H](CCCCNC(=N)N)NC(=O)[C@H](CC(C)C)NC(=O)[C@H](CC(C)C)NC(=O)[C@H](CCCCNC(=N)N)NC(=O)[C@H](CCCCNC(=N)N)NC(=O)[C@H](CC(C)C)NC(=O)CNC(C)=O)C(=O)N[C@@H](CCCCNC(=N)N)C(=O)N[C@@H](CCCCNC(=N)N)C(N)=O  MIC (Citrobacter freundii; bacterial growth, broth microdilution; multidrug-resistant): 3.12 µM
C[N+]1=C2C(c3ccc(Cl)cc3)=[N+]([O-])c3ccccc3N2CCC1  MIC (Clostridioides difficile; microbial growth; ATCC43255): 16 µg/mL
CN[C@@H]1[C@H](O)[C@H](NC)[C@H]2O[C@]3(O)[C@H](O[C@@H]2[C@H]1O)O[C@H](C)C[C@@]3(O)CNCc1ccccc1  MIC (Streptococcus pneumoniae; D39X drug sensitive): 3 µg/mL
C[C@@H](c1ccn(Cc2ccc(Cl)c(Cl)c2)n1)[C@](O)(Cn1cnnn1)c1ccc(F)cc1F  MIC (Candidozyma auris; growth; 789 drug-resistant isolate; 24 h, 30 °C, ≥50% inhibition): 4 µg/mL
COc1ccc(C2=[N+]([O-])c3ccccc3N3CC(C)(C)CN=C23)cc1  MIC (Clostridium sporogenes; microbial growth; ATCC3584): 1 µg/mL

Excerpt of the above:
C[C@@H](c1ccn(Cc2ccc(Cl)cc2Cl)n1)[C@](O)(Cn1cnnn1)c1ccc(F)cc1F  MIC (Candidozyma auris; microbial growth; D12; 24 h, drug-resistant strain, clinical isolate): 16 µg/mL
CC[C@H](C)[C@H](NC(=O)[C@H](CO)NC(=O)[C@H](CO)NC(=O)[C@H](Cc1ccccc1)NC(=O)CN)C(=O)N[C@@H](Cc1ccccc1)C(=O)N[C@@H](CCCNC(=N)N)C(N)=O  MIC (Escherichia coli; ATCC 8739; 10% FBS): > 128 µM
